Experimental data of several laboratories.
Each numbered part is a random draw from the data of one study; scales do not carry over between parts.

Study 1 — method: universal PBM; form: double-stranded DNA, one strand shown; sample: in vitro; tested at: 600 nM; reading: higher = stronger binding
Target: Sal-like protein 4, full length isoform A (SALL4, Homo sapiens, UniProt Q9UJQ4, residues 1-1053)
Sequence of UniProt Q9UJQ4 (whole entry, looked up): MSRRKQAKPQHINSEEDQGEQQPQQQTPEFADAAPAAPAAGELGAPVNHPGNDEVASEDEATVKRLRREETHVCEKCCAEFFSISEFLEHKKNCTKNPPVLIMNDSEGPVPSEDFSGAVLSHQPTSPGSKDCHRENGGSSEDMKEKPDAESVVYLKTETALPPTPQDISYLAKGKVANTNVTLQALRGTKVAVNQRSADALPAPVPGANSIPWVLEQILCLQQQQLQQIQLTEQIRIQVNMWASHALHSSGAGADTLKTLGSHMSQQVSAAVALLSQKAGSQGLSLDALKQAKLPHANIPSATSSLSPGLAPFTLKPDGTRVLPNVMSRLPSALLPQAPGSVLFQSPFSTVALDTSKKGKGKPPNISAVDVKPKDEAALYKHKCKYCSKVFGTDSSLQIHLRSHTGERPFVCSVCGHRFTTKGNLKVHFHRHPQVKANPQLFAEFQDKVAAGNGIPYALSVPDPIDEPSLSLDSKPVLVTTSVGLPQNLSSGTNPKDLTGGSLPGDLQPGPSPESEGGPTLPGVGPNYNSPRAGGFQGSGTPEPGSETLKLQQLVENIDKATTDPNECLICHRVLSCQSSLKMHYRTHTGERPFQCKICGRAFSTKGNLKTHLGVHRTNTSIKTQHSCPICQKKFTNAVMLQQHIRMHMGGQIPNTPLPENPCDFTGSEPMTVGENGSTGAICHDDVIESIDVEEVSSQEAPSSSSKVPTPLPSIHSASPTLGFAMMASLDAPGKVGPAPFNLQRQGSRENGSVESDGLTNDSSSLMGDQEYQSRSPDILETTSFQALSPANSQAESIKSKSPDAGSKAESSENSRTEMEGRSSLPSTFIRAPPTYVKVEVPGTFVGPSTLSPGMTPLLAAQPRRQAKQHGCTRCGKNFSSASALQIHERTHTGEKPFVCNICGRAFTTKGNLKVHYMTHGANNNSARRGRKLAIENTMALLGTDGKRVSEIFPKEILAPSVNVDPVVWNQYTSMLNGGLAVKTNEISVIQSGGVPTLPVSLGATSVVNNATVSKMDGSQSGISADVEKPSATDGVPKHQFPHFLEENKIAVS
Notes: 8-mer, flanks averaged, mean of replicates
Sequence	E-score
CGTAATTC	0.0478
AATTCCGT	0.145
AGGGATGG	-0.146
CCTCAGTC	-0.232
AAAACGAA	0.177
GCTTCGTA	0.118
GGCTTGTA	-0.0369
AGAGTTGA	0.0122
CGCGCTGC	-0.217
CTATTGAC	0.11
ACGCGTCA	0.0293
ACGGGACA	-0.0896
AGAGAAGC	-0.0857
AGCCACCA	-0.066
CCTCGATA	0.21
GAGACTGA	-0.115

Study 2 — method: RNA Bind-n-Seq; form: RNA; sample: in vitro; tested at: not given; baseline: input RNA pool; reading: higher = stronger binding
Target: RING finger protein unkempt homolog, zinc fingers 1-6, GST-SBP tag (UNK, Homo sapiens, UniProt Q9C0B0, residues 30-357)
Notes: RNA with constant flanks, human and mouse sites, ends assumed
All sequences stand within: GGGAGUUCUACAGUCCGACGAUC … CAACAGAGGAUUGAGCAUCA
Target sequence (chain): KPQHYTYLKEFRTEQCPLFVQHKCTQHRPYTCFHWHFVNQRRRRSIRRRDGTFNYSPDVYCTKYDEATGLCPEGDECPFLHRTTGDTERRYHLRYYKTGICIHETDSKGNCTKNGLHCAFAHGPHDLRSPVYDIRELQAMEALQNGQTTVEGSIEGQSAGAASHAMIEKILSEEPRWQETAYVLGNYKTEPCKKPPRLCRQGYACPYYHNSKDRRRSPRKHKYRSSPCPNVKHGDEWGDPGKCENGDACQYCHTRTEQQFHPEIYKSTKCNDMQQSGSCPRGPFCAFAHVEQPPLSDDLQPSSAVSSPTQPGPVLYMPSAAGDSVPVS
Sequence	bound/input enrichment
UGGAAGUUGGAUACACUUUGUGACUUGUACGAGACACUGACCAUUACACAGGCUGUUAUUUUUCUCAAUACGAGGCGCAAGGUGGACUGGCUGACUGAGAAGAUGCAUGCCAGAGACUUC	0.0868 ratio
CCAACGUUAGAAGCAGCCUGGCCUCAUCUACAGCUUGUUUAUGAAUUUUUCUUAAGAUUUUUAGAGUCUCCAGAUUUCCAACCUAAUAUAGCGAAGAAAUAUAUUGAUCAGAAGUUUGUA	1.54 ratio
GAAUUUGCAGCAGGUCCUGCUCAAUCUGGAAUUUUGUCAGAUCGUGAAGUGGUAAACCUCUUUCUUCAUUUUACUGUCAACCCUAAACCCCGAGUUGAAUACAUUGACCGACCAAGAUGC	0.239 ratio
UCCACACAACAGGUGAAGAACAAGCUCAUUGAGAACACGGAUGCAGCCUGCAAAUAUGGGGCCUUUGGGCUACCCACCACUGUUGCCCAUGUGGAUGGUAAAACCUACAUGUUAUUUGGG	0.037 ratio
GCUGUUAGCAUUUUUCUCUUUGCAAUAGAUCUUCCUAUGUCAGUACACAUCAAUCUACCUCAUUCUUACCUCUGCAUAAGAGAGUAGUGUGUAGUUGUAUAAUAGUUUAACUUGGCGAUU	5.79 ratio
GGUGCCAACCUGAAUGGAAUCAUCUACUUACUGGGGGGUGAGGAGAAUGAUCUAGACUUCUUUACCAAACCUUCCCGACUGAUCCAGUGCUUUGACACAGAAACUGACAAGUGCCACGUG	0.103 ratio
AGAAUGGAAGAUUUCACCUUCAAUGACUUGUGUAUUAAACUGGGUUUUCCUUACUUAUACUGUCAUCAGGGAGACUGUGAACAUGUCAUUGUCAUUACUGACAUAAGGCUUGUGCAUCAU	0.19 ratio
UACCAGCAGGCCCUGCUGCUCCUGGGGGCCGCCGCCCUGGCCUGCCUCGCCCUGGACCUCCUCUUCCUGCUCUUCUACUCCUUCUGGCUGUGCUGCCGGCGGCGCAAGAGCGAGGAGCAC	0.088 ratio
UUAGGUCAGCCUGCCCUCUCUCUCCCAGACCACAUAAGCCUCCCUGUGCUCACUGUGCCCCAAAGUGCAAUUACUCACACUCAGUGAGGACACCAGGCAGCUACAGACUGCCCACUAAGC	0.947 ratio
AAUUAUGUACAUCAAAGAUAUCCUAGAUGUAGAGACGAUGGUGUCUGGGAUAAAAGGCAGAGUUAGUUUCUCUCAUAGCAUAUAUUGGCAGAAAUGGUUCUGCAAGAUGCUCAAAGGCAU	7.04 ratio
AAGGAAAGAAUACUGAAAAUUGUCACUGGAUUUAAUGGUAUCCCUUUUACUAUUCAGCGACUAUGUGAAUUGUUAACAGAUCCAAGGAGAAACUAUACAGGAACAGACAAAUUUCUCAGA	0.205 ratio

Study 3 — method: RNA Bind-n-Seq; form: RNA; sample: in vitro; tested at: 365 nM; baseline: no-protein control; reading: higher = stronger binding
Target: RNA binding protein fox-1 homolog 2, RRM domain, GST-SBP tag (RBFOX2, Homo sapiens, UniProt O43251-10, residues 100-194)
Notes: natural RNA segment, single round, ends assumed
All sequences stand within: GGGAGUUCUACAGUCCGACGAUC … UGGAAUUCUCGGGUGCCAA
Residues (chain): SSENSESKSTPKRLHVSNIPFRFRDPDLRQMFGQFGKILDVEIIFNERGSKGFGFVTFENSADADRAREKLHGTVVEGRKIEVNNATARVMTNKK
Sequence	RBNS enrichment (R)
CCCUCUGAUGGCCACUCAGAGAAUACCAUAAUAAACAUGGCUGAGGACCCAGGAGAGUUCACGGGAGGCUUCAUCAUAUGAAAGGACAAUGUUCUGGGUUGUGCAUGAAA	1.49
UGAGAAACCAUGAGGUUUCUUUGUAUUAAAAUUUGAAAUAAAUUUCUACUUAUCUUUUGGUAUUGGAUCUUGCCAGUCGUUUGCUGUUGCAUUCUUUUAAGGAAUCGGAC	0.771
UUUAGAAUCUUGUAUUUAAGUUUUGAUUUUCAAAUGUUCUGCUUCAUGUGUCUGUGAAGAAUUGUACUUUAAGUGUGUGUCCUCUGAGGUGCUUGAGAAAGUGUACACUG	1.4
AAUGACUCCUUGGGUAUUAGAGUUUCAACCAUGAAGUCUCUAACAAUGUAUUUUCUUCACCUCUGCUACUCAAGUAGCAUUUACUGUGUCUUUGGUUUGUGCUAGGCCCC	0.833
ACCAGUGACAAUCUUAUGAAUAUAAUGAAUAAGUAAGCAUAUAGUAGGGUGAUAGAAUACAGAUAGUAGAAACAAAGAGAGGACAGCAAACCUUUUCAGCACUUCUCUCA	0.308
AGAAGUGUUUCAAACAUAUCUGAAUGUAUAAAAUAAGAGUAAAUGCCCUACAUGGUGUGAUGCUGCAUUAUAUAUAAAACUGUGUGCAUAUAUUAAAUUUUGUCUCUUGA	0.651
UUUAGUUGUCAUAUAAAAACCCACUGUUUGAGAAUGAUGCUACUCUGAUCUAAUGAAUGUGAACAUGUAGAUGUUUUGUGUGUAUUUUUUUAAAUGAAAACUCAAAAUAA	3.95
CUUCUUCCUGCUUCGGUGAUCCGAGGCUAGAGGGAGCUGCAUGGUAUCUUGUUACUAACUCAGUAUGUGUCAAUGUCAAAUACCAUGAAAUAAAGUCUGAAAACCUUAAA	0.299
AAGCUCCCAGCUGGCCAUAGUGAAAAGAUUUCCCCUUUCAACCAGCAAAGUCUUCUGUUGGCCUUUGGAACAGGAGAGUCCCCGGAAUCUAGGACCCUAGUCUUUGUACU	0.26
AGGCAUCUUGACAUCUUGGCAACUGCCUAGUUAAUGCCAGUGGCCUGUACCAUAUUAUGGAAAACUGUUAACUGCUUAAUUGGGUAAUUUUCAAAGAAAGUAAUGUUGUU	0.392
AUAUAUGUAUAAUAUAUCAAUACUGGAGCCCCGCCUUUCUGUGCCCAGGUCCAGGCCCUGUGUAAGGGCUUGCAGCCUGUCUCUGCUGUCCACCCUGCAGUGCUCACUUU	0.261
UCUCACCCUGGUGUCAACAUGCUGUGCCUUUCUCUUUCUCUAUUUUUGUUGGUGACCUGGAUAGUGUGGCCUUUGGGACAGAUCAGAGGCACAGGAAAGCAAAGGAAAUG	0.807

Study 4 — method: protein-binding microarray; form: double-stranded DNA, one strand shown; sample: in vitro; tested at: 2540 nM top; notes: 60-bp whole probe; with: salmon DNA 0.4 mg/ml; baseline: random background probes; reading: higher = stronger binding; all sequences stand within: GCCTAGCAC … GTCTTGATTCGCTTGACGCTGCTG
Target: Interferon regulatory factor 3, full length, phosphomimetic (IRF3, Homo sapiens, UniProt Q14653, residues 1-427, S386D/S396D/S398D/S402D/T404D/S405D)
Construct (chain): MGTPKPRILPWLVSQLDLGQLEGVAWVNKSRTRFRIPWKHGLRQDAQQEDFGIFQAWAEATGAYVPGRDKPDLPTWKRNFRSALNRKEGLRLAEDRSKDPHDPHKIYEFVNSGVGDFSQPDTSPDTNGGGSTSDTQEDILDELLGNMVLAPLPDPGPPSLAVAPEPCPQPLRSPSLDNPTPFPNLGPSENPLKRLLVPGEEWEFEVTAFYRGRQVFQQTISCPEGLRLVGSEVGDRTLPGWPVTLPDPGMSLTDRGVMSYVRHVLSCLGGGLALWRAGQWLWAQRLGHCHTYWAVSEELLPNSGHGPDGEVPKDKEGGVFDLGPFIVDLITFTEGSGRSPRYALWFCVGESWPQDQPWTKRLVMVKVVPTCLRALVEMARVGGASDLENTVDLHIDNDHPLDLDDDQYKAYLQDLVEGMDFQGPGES
Sequence	fitted relative affinity
TTAGAACTGGGGAATCGATTAGTGCTA	-0.566 z-score
GACGGACTGCTTCTCCTGGCGTGCTAG	-0.273 z-score
TTATGTTTCCTTATCCTTTAGTGCTAG	7.24 z-score
GACGGACTAGGTCTCGGGACGTGCTAG	-0.479 z-score
GACGAACTGAGTCTCGAGATGTGCTAG	-0.265 z-score
ATTTTTTTCTAATTGAAATGGTGCTAG	1.58 z-score
GACGGTTTCCTTTCCCTTACGTGCTAG	10.4 z-score
TCAGGTTTCCTTTCCCTTTAGTGCTAG	10.3 z-score
TCATTTTTTTTTTTTTCACTGTGCTAG	1.17 z-score
TTAGGACTGCAACTGCTTTAGTGCTAG	-0.577 z-score
TCATAATTCTCTTTTCAACTGTGCTAG	1.57 z-score
TTAGGTCTCGGTTTCGGATAGTGCTAG	4.43 z-score
CACGGTCTCGGTCTCGGGACGTGCTAG	1.08 z-score
GACGATTTCACTTTCGAGACGTGCTAG	4.44 z-score
TTAGCACTGGGACTGGGTTAGTGCTAG	-0.861 z-score
TCACATTCTGAATTCGAACTGTGCTAG	2.15 z-score
GACGGACTGGGACCGGGGACGTGCTAG	-0.633 z-score
GACGGTATCCTTCACCTGACGTGCTAG	1.78 z-score
TCAGATTTTGGTCTTTCACTGTGCTAG	0.747 z-score
TTAGGACTGGAATATCGGTTAGTGCTA	-0.243 z-score
CTCTGCTTGTGTCTGGGATTGTGCTAG	-0.521 z-score
GACGATATCAGTTCCGAGACGTGCTAG	1.56 z-score
TTAGGTTCCCTTTTTCTTTAGTGCTAG	6.53 z-score
TTAGATATCAGTCTCGATTTGTGCTAG	1.76 z-score
TCATGTTTTTCATTGTTACTGTGCTAG	0.6 z-score

Study 5 — method: RNAcompete; form: RNA; sample: in vitro; tested at: 20 nM; notes: 7-mer, probes averaged, single round; baseline: mean of 7-mers; reading: higher = stronger binding
Target: PABPC1L2, full length, GST fusion (mouse, UniProt A0ABA7IW68)
Residues (chain): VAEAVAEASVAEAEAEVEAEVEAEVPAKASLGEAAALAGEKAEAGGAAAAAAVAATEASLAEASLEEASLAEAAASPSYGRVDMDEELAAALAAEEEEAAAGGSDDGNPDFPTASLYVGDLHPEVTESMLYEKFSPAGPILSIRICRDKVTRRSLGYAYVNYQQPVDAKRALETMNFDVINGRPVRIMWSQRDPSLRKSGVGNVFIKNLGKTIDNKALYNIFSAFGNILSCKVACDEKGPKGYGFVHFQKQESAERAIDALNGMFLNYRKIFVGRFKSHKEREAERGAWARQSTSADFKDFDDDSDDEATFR
Sequence	7-mer Z-score
GUGACCG	-0.124
GGGGAAA	0.729
UUAACUU	-0.226
UAGCGCC	-0.0319
UGCGAUG	-0.228
CCAAUCC	-0.431
GUUACGC	-0.277
UGUCGAA	-0.246
CUGUUCA	-0.4
AUUAGGG	0.298
CUCGUUU	-0.436
UAGCUCG	-0.335
AUGAGAU	0.0352
CCACACG	-0.2
CCCCGUU	-0.447
AUCUGGU	-0.159
UGGCAGU	-0.079
GAAACUC	-0.0138
